# Assay results from different studies.
# Every numbered part comes from another study and shows a few of its results, in no order.
# Chain of UniProt Q00537 (whole entry, looked up): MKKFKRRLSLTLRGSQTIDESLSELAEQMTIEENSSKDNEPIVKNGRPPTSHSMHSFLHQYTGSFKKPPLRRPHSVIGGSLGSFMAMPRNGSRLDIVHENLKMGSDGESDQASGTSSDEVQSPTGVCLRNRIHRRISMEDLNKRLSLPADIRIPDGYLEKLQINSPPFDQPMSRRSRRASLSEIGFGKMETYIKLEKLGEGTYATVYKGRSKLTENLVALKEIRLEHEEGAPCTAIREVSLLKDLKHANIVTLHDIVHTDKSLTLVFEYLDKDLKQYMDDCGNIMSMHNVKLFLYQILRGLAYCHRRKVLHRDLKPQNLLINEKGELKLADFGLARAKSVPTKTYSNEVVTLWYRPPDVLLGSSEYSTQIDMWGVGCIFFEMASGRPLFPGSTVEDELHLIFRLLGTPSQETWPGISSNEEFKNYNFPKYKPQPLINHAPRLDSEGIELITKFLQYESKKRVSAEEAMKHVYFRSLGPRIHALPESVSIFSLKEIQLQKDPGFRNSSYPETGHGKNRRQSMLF
# Chain of UniProt P42685 (whole entry, looked up): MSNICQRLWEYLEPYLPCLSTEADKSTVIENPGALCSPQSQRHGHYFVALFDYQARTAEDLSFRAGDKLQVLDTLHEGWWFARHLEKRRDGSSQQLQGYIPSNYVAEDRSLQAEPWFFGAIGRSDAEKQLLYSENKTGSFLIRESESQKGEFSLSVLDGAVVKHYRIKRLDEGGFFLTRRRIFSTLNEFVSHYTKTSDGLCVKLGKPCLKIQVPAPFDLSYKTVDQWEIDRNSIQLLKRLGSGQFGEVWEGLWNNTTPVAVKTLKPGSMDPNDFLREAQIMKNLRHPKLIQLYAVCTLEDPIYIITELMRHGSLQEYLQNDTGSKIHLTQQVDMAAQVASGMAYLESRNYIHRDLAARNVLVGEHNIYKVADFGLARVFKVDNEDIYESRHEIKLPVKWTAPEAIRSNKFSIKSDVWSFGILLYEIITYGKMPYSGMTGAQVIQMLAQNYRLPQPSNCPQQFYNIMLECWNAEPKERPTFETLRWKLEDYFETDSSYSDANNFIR
# Chain of UniProt Q13131 (whole entry, looked up): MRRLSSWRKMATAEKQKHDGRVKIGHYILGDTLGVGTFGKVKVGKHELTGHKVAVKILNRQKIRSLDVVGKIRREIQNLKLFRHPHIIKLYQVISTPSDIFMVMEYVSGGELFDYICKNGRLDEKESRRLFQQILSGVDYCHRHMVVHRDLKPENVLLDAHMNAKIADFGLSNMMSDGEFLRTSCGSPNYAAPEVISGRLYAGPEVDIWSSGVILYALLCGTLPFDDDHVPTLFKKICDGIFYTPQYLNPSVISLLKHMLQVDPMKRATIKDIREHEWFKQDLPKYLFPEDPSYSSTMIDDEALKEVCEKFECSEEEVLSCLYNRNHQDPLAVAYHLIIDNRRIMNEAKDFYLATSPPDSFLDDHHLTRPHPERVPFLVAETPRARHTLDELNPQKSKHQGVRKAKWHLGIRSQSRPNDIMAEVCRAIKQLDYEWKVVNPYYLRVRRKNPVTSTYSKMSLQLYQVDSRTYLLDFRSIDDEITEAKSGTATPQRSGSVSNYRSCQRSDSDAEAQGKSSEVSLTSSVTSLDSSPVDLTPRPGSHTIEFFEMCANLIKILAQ
# Chain of UniProt P29376 (whole entry, looked up): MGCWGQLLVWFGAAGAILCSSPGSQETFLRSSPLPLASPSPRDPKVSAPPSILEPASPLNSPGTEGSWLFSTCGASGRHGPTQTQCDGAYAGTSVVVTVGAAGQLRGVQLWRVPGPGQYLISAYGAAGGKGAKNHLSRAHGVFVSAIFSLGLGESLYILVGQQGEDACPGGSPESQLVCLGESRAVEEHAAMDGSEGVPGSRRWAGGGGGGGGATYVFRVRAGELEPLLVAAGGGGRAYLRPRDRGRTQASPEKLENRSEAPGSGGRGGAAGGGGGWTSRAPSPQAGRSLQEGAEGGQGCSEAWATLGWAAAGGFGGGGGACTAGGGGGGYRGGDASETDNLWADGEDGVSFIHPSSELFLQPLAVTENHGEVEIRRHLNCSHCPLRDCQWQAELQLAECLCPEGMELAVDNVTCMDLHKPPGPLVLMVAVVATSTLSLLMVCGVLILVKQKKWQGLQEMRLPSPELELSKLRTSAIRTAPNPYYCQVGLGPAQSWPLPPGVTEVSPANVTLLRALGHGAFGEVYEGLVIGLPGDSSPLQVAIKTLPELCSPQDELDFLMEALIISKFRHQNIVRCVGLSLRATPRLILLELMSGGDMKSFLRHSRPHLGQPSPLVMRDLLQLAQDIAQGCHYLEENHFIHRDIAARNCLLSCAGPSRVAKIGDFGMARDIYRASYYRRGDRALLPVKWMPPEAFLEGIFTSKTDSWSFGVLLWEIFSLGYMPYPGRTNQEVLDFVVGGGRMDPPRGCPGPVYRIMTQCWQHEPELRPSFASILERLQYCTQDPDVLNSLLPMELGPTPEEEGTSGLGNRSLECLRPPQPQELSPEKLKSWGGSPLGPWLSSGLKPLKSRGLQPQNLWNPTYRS
# Chain of UniProt Q00535 (whole entry, looked up): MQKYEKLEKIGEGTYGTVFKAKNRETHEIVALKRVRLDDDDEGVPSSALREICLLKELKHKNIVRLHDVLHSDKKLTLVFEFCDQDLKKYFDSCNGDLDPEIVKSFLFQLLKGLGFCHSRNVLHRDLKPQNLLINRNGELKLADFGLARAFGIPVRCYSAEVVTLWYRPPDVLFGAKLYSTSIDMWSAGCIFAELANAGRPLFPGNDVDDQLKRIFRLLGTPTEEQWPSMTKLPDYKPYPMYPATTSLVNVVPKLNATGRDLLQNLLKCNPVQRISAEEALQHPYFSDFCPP
# Chain of UniProt P80192 (whole entry, looked up): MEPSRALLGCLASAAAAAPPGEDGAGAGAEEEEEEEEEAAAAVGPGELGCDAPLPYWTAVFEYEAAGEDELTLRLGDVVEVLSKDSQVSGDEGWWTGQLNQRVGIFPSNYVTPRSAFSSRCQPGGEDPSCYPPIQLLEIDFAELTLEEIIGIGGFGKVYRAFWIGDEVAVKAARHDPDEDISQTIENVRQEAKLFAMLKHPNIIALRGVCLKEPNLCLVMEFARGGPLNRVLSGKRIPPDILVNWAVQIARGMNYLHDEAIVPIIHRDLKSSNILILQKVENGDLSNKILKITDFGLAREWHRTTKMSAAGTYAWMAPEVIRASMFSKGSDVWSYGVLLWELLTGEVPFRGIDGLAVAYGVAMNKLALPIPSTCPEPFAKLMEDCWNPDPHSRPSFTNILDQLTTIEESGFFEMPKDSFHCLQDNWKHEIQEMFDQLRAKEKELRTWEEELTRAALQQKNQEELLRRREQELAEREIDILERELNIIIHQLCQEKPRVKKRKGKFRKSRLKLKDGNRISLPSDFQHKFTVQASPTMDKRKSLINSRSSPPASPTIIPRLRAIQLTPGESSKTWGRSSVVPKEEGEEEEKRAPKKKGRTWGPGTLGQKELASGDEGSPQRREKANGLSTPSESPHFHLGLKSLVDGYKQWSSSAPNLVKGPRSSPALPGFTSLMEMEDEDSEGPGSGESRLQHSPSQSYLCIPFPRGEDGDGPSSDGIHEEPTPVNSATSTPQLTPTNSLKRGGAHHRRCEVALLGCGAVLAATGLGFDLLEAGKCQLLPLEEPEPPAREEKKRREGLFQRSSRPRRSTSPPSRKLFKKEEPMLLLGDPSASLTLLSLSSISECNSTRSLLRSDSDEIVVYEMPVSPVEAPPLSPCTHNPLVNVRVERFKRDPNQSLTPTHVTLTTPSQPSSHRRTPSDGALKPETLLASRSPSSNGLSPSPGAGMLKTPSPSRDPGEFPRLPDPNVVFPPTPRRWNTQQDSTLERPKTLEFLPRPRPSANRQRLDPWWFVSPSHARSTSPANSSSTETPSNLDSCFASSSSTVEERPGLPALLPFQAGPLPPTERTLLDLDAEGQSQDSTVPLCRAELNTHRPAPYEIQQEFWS
# Chain of UniProt P45983 (whole entry, looked up): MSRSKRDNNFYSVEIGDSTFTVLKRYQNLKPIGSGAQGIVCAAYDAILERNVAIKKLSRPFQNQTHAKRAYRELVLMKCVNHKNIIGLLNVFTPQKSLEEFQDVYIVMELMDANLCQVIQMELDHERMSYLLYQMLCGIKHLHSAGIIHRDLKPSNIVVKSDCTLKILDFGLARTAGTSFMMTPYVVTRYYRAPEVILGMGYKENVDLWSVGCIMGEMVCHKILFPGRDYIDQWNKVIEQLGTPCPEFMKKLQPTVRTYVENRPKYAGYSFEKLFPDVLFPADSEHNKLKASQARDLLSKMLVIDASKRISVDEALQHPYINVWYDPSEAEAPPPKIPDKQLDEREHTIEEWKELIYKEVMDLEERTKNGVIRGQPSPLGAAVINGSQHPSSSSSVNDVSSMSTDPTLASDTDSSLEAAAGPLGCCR
# Chain of UniProt P07947 (whole entry, looked up): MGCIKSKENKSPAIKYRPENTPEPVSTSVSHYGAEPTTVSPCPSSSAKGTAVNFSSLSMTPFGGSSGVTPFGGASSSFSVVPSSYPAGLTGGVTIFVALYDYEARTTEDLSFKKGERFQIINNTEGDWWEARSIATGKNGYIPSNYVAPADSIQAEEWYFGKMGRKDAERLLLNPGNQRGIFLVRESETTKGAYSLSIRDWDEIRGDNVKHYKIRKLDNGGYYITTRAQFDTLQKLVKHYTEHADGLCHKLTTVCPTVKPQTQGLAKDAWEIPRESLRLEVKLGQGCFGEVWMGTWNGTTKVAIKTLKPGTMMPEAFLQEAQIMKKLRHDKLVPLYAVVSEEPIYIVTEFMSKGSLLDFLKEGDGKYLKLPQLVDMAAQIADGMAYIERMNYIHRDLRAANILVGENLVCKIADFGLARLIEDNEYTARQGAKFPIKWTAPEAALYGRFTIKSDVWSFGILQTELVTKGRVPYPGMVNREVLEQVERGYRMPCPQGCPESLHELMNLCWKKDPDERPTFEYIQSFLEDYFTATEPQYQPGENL

# Set 1
# SMILES: CCOC(=O)c1cc2cc(-c3cc(C(=O)NCc4ccc(C(=O)O)cc4)nn3C)ccc2[nH]1
# Observed: cell-free assay
# Method: competition with immobilised ligand
# Tested at: 0.1 µM
target,remaining binding
"YES1 (Homo sapiens, UniProt P07947)",100%
"PHKG1 (Homo sapiens, UniProt Q16816)",100%
"PIP5K1C (Homo sapiens, UniProt O60331)",100%
"ROCK1 (Homo sapiens, UniProt Q13464)",78%
"PIP5K1A (Homo sapiens, UniProt Q99755)",100%
"HIPK2 (Homo sapiens, UniProt Q9H2X6)",82%
"PIM2 (Homo sapiens, UniProt Q9P1W9)",96%
"PIK3C2B (Homo sapiens, UniProt O00750)",93%
"LTK (Homo sapiens, UniProt P29376)",100%
"NLK (Homo sapiens, UniProt Q9UBE8)",86%
"CHEK1 (Homo sapiens, UniProt O14757)",100%
"MAPK8 (Homo sapiens, UniProt P45983)",96%
"TIE1 (Homo sapiens, UniProt P35590)",76%
"ROS1 (Homo sapiens, UniProt P08922)",97%
"CDK17 (Homo sapiens, UniProt Q00537)",100%
"MAP3K9 (Homo sapiens, UniProt P80192)",100%
"PIK3C3 (Homo sapiens, UniProt Q8NEB9)",80%
"PRKAA1 (Homo sapiens, UniProt Q13131)",100%
"FLT3 (Homo sapiens, UniProt P36888, N841I)",81%
"PRKD1 (Homo sapiens, UniProt Q15139)",75%
"TGFBR2 (Homo sapiens, UniProt P37173)",66%
"PAK6 (Homo sapiens, UniProt Q9NQU5)",99%
"PIP4K2B (Homo sapiens, UniProt P78356)",100%
"FRK (Homo sapiens, UniProt P42685)",100%
"CDK5 (Homo sapiens, UniProt Q00535)",94%

# Set 2
# Cell line: Huh-7
# Tested at: 10 µM
# Time: 24 h
Structure (SMILES),viability [%]
Nc1ccc(C(=O)O)cc1,100
CN1CC(=O)N2[C@H](c3ccc4c(c3)OCO4)c3[nH]c4ccccc4c3C[C@@H]2C1=O,96.7
CCCCCCCCCCCCCCCCCCCCCCO,101
CC(CN(C)C)CN1c2ccccc2CCc2ccccc21 (centres unmarked),98.5
Nc1ccc(C(=O)Oc2ccccc2)c(O)c1,102
C[C@@H]1C[C@H]2[C@@H]3CCC4=CC(=O)C=C[C@]4(C)[C@@]3(F)[C@@H](O)C[C@]2(C)[C@@]1(O)C(=O)CO,101
O=C(CCNNC(=O)c1ccncc1)NCc1ccccc1,100
Nc1ccc(O)c(C(=O)O)c1,99.3
CNCCCN1c2ccccc2CCc2ccccc21,90.4
CN1CCOC(c2ccccc2)c2ccccc2C1 (centres unmarked),99.8
Cc1cn([C@H]2C[C@H](N=[N+]=[N-])[C@@H](CO)O2)c(=O)[nH]c1=O,92
CNS(=O)(=O)Cc1ccc2[nH]cc(CCN(C)C)c2c1,101
C[n+]1cc2c3c(ccc2c2ccc4cc5c(cc4c21)OCO5)OCO3,12.6
COc1cccc(OC)c1C(=O)N[C@@H]1C(=O)N2[C@@H]1SC(C)(C)[C@@H]2C(=O)O,103
COc1ccc(C(=O)c2ccccc2)c(O)c1,97.1
CNC1(C)C2CCC(C2)C1(C)C (centres unmarked),81.8
Cn1cnc([N+](=O)[O-])c1Sc1ncnc2nc[nH]c12,98.8
CC(=O)OC(C)C[N+](C)(C)C (centres unmarked),98.9

# Set 3
# Host: human
# Sample: microsomes or S9
# Tested at: 2 µM
# Time: 0.5 h
Compound,remaining compound
CCOC(=O)c1[nH]c(C)c(CN(Cc2ccccc2)C(=O)CCC(=O)O)c1C,2.7%
N#Cc1ccc(-c2ccccc2CCOc2ncccn2)cc1,27.7%
Cc1cccn2c(=O)c(/C=N/O)c(NCc3ccco3)nc12,> 99%
CCOc1nnc(Cc2ccccc2)c2ccccc12,27.7%
O=C(O)CCC(=O)N1N=C(c2nn(-c3ccccc3)cc2-c2ccccc2)CC1c1cccs1 (centres unmarked),75.7%
COc1cc(-c2nc3ncccn3c2NC2CCCC2)cc(OC)c1OC,10.7%
COc1ccc(CCN2CCC(CNS(=O)(=O)c3ccc(-c4ccc(=O)[nH]n4)s3)CC2)cc1,62.1%
CC(C)(C)S(=O)(=O)c1ccc2nc3c(n2c1)CCCC3,69%
CN(C)C1CCN(c2ncnn3c(Br)ccc23)CC1,94.5%
Cc1cnc(NC2CC(C)OC(C)C2)nc1NC1CC(C)OC(C)C1 (centres unmarked),> 100%
O=C(NC1CCCCC1)c1nnn(-c2ccccc2Cl)c1-c1cccnc1,99.3%
COc1cc2c(cc1OC)C1(c3ccoc3)OC(=O)C(=O)N1CC2 (centres unmarked),3.15%
CC(C)(C)/C(=C/c1ccc(Cl)cc1)Cn1ccnc1,99.2%
CC1(C)CC(n2[nH]c(=O)c3c2N=C(O)CSC3C2CCCCC2)CCO1 (centres unmarked),56.5%
CCOC(=O)C1=C(O)CN(Cc2ccc(F)cc2)C1=O,89.2%
COc1c(Cl)c(Nc2ccc3[nH]ncc3c2)nc(NC(C)C)c1Cl,55.8%
Cc1ccc(S(=O)(=O)N2c3c(c4ccccc4n3Cc3ccccc3)CC=CC2c2ccccc2)cc1 (centres unmarked),32.7%

# Set 4
# Target: Aurora kinase C (AURKC, Homo sapiens, UniProt Q9UQB9)
# Observed: enzyme activity
# Mode: inhibitor
# Tested at: 0.5 µM
# Baseline: control
# Construct (Q9UQB9 1-309): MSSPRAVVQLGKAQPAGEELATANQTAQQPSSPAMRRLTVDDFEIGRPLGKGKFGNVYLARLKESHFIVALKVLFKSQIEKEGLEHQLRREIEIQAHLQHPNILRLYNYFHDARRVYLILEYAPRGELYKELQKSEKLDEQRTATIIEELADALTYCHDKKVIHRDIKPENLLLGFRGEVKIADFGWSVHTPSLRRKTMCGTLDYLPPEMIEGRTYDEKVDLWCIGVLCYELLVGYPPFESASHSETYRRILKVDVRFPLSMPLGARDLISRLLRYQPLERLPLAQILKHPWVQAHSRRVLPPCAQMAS
Compound,remaining activity
COc1cc2c(cc1OC)-c1[nH]nc(Nc3cccc(F)c3)c1C2,94.5%
c1ccc(-c2[nH]ncc2-c2ccnc3ccccc23)nc1,100%
Ic1cccc(CSc2nnc(-c3ccncc3)o2)c1,91.2%
COc1cc2ncnc(Nc3cccc(Cl)c3)c2cc1OC,85.8%
CCN(CC)CCNC(=O)c1c(C)[nH]c(/C=C2\C(=O)Nc3ccc(F)cc32)c1C,72.8%
Cc1nc2cc3nc(-c4cccs4)cnc3cc2n1C,93.3%
Cn1nc2c3c(cccc31)C(=O)c1ccccc1-2,89.3%
COc1cc2ncnc(Nc3ccc(O)c(Br)c3)c2cc1OC,83.7%
CCN(CC)C(=O)c1ccc(Nc2nc(OCC3CCCCC3)c3[nH]cnc3n2)cc1,20.7%
CCOc1nc(NC(=O)Cc2cc(OC)ccc2OC)cc(N)c1C#N,97.4%
O=C(Nc1cccc(Nc2nccc(Nc3cccc(C(F)(F)F)c3)n2)c1)C1CC1,80.8%
C[C@@H]1CCN(C(=O)CC#N)C[C@@H]1N(C)c1ncnc2[nH]ccc12,85.3%
Nc1cccc(-c2cc3c(Oc4cccc(O)c4)ncnc3[nH]2)c1,77.7%
CN([C@@H](Cc1ccc(OS(=O)(=O)c2cccc3cnccc23)cc1)C(=O)N1CCN(c2ccccc2)CC1)S(=O)(=O)c1cccc2cnccc12,98.2%
O=C1c2ccccc2-c2n[nH]c3cccc1c23,41.2%
c1ccc(-c2cnc(Nc3ccc(OCCN4CCCC4)cc3)s2)cc1,94.9%
O=C1C(Cl)=C(N2C(=O)CCC2=O)C(=O)c2ccccc21,97.9%
N#C/C(=C\c1ccc(O)c(O)c1)C(=O)NCc1ccccc1,95.5%
Cc1cn(-c2cc(NC(=O)c3ccc(C)c(Nc4nccc(-c5cccnc5)n4)c3)cc(C(F)(F)F)c2)cn1,87.2%
O=C(NC(NC(=S)Nc1ccc(F)c([N+](=O)[O-])c1)C(Cl)(Cl)Cl)C(c1ccccc1)c1ccccc1 (centres unmarked),93.8%
N#Cc1c(NC(=O)c2cccc3ccccc23)sc2c1CCCC2,95%
CN(C)C[C@H]1CCn2c(c(C3=C(c4cn(C)c5ccccc45)C(=O)NC3=O)c3ccccc32)C1,93.1%
Cc1cc2ncc(-c3ccccc3)nc2cc1C,92.1%

# A few entries again (set 2):
Structure (SMILES),viability [%]
CC(CN(C)C)CN1c2ccccc2CCc2ccccc21 (centres unmarked),98.5
Nc1ccc(C(=O)Oc2ccccc2)c(O)c1,102
C[C@@H]1C[C@H]2[C@@H]3CCC4=CC(=O)C=C[C@]4(C)[C@@]3(F)[C@@H](O)C[C@]2(C)[C@@]1(O)C(=O)CO,101
O=C(CCNNC(=O)c1ccncc1)NCc1ccccc1,100
Nc1ccc(O)c(C(=O)O)c1,99.3
CNCCCN1c2ccccc2CCc2ccccc21,90.4
CN1CCOC(c2ccccc2)c2ccccc2C1 (centres unmarked),99.8
Cc1cn([C@H]2C[C@H](N=[N+]=[N-])[C@@H](CO)O2)c(=O)[nH]c1=O,92
CNS(=O)(=O)Cc1ccc2[nH]cc(CCN(C)C)c2c1,101
C[n+]1cc2c3c(ccc2c2ccc4cc5c(cc4c21)OCO5)OCO3,12.6
COc1cccc(OC)c1C(=O)N[C@@H]1C(=O)N2[C@@H]1SC(C)(C)[C@@H]2C(=O)O,103
